# Measurements pooled from the literature.
# Every numbered part comes from another study and shows a few of its results, in no order. Changes are numbered by the printed parent chain.

# Block 1
# Target: Histone acetyltransferase KAT6A, winged helix 1, GST fusion (KAT6A, Homo sapiens, UniProt Q92794, residues 1-85)
# Technique: protein binding microarray
# Molecule type: double-stranded DNA, one strand shown
# Medium: in vitro
# Concentration: not given
# Setting: 8-mer, flanks averaged, mean of 2 arrays, mostly near background
# Reference: not given
# Direction: higher = stronger binding
# Residues (chain): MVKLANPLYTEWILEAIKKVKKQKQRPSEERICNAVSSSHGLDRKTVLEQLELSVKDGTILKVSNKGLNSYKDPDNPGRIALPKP
Strand,E-score
AAAAGTCT,-0.218
AGGTGTCC,0.00246
TCTGACCA,-0.103
ACGATTTC,-0.0478
TCCGAACA,0.0487
CACAGTGG,-0.119
TACCCTCA,-0.205
CTATTATA,-0.189
AAGTGTGC,-0.0785
CACGGACG,0.292
GTGTTTAA,-0.0293
ATTACAAA,-0.168
CTGCGTAA,0.226
AGAACCGA,-0.0529
ACGAAGCA,-0.179
TCAGTAGA,-0.0832

# Block 2
# Target: HLF, bZIP domain (human)
# Technique: DHFR protein complementation
# Medium: yeast
# Setting: single substitutions, most at no-binding floor
# Reference: wild-type JUN-FOS pair
# Direction: higher = stronger binding
# Parent: JUN, bZIP domain (human); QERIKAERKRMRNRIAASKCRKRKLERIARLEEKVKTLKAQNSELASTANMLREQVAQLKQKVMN; partner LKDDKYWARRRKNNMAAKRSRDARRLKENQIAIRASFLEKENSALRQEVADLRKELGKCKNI
Change,binding fitness [natural log]
Q41H,-1.5
L52W,-1.39
T37R,-1.35
A46K,-1.36
K36Y,-1.45
T37P,-1.53
Q41I,-1.45
L45P,-1.54
A46R,-1.27
S47E,-1.29
Q55T,-1.36
L38C,-1.53
I28Y,-1.45
Q41K,-1.46
L52V,-1.41
L45F,-1.44
Q41R,-1.26
E33T,-1.52
I28E,-1.45
K34H,-1.33
V35A,-1.49
K34L,-1.32
L52Y,-1.44
M51T,-1.31
I28A,-1.42

# Block 3
# Target: ABI1, truncated, D143A, DHFR fusion (Arabidopsis thaliana, UniProt P49597)
# Technique: DHFR PCA, dose-response
# Medium: yeast
# Setting: Hill fit, mean, not affinity
# Together with: (+)-ABA, dose series
# Direction: lower = more sensitive
# Parent: PYL1, truncated, DHFR fusion (Arabidopsis thaliana, UniProt Q8VZS8); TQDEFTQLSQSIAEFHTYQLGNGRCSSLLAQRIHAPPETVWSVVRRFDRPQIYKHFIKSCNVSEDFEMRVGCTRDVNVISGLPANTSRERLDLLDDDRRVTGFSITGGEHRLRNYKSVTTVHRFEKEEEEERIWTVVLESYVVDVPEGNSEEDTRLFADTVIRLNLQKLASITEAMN
Change,ABA EC50
Y18S,14.7 µM
F5P,8.03 µM
M176T,3.59 µM
E152I,8.42 µM
G21V,1.46 µM
T120E,532 µM
D144V,116 µM
A158N,70.4 µM
I172Q,27.9 µM
S171T,1.53 µM
A84C,72.2 µM
I57A,73.5 µM
F56Q,453 µM
L156V,1.38 µM
S11G,8.04 µM
Y18R,10.6 µM
K58R,1.87 µM
V78T,26.6 µM

# Block 4
# Target: Interferon regulatory factor 3, full length, phosphomimetic (IRF3, Homo sapiens, UniProt Q14653, residues 1-427, S386D/S396D/S398D/S402D/T404D/S405D)
# Chain of UniProt Q14653 (whole entry, unmodified, looked up): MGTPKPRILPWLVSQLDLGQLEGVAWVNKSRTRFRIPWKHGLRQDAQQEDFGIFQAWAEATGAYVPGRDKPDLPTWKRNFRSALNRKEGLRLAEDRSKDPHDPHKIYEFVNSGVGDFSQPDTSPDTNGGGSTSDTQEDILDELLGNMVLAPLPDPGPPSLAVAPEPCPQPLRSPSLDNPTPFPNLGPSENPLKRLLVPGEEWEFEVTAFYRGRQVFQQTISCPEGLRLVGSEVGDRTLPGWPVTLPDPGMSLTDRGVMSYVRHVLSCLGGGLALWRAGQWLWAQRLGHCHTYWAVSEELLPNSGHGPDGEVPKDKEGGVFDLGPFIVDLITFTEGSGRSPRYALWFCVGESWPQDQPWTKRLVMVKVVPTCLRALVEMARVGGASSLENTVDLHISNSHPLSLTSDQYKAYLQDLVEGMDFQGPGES
# Technique: protein-binding microarray
# Molecule type: double-stranded DNA, one strand shown
# Medium: in vitro
# Concentration: 2540 nM top
# Setting: 60-bp whole probe
# Together with: salmon DNA 0.4 mg/ml
# Reference: random background probes
# Direction: higher = stronger binding
# Constant ends, left off below: GCCTAGCAC … GTCTTGATTCGCTTGACGCTGCTG
Strand,fitted relative affinity
TTAGATTTCGGGTATTGATTAGTGCTA,0.976 z-score
TCATAAAATGGACACTGTACTGTGCTA,-0.0241 z-score
TTAGGTCTCCTTATCCTATAGTGCTAG,2.97 z-score
TCCCTTTCAGTTTTCCTCTGGTGCTAG,4.92 z-score
TTAGGTATCGGGAATGGGTTAGTGCTA,0.494 z-score
TTAGATTTCTGTTTCGATTAGTGCTAG,5.48 z-score
TTAGGTTTTGGTTCCGGTTAGTGCTAG,5.34 z-score
TTTCCTCTGTCATTTTCTCTGTGCTAG,3.37 z-score
TCATATTCATATATATAACTGTGCTAG,1.45 z-score
TCATTTTTTTTTTTTACACTGTGCTAG,1.38 z-score
TTAGGTCTCGGTTTCGGCTAGTGCTAG,2.97 z-score
TACTCTCCAGGGTTTCTCTTTGTGCTA,0.93 z-score
TTAGGACTGGGGTATCAGTTAGTGCTA,-0.559 z-score
TTAGATTTCGGTTTTCGATTAGTGCTA,7.05 z-score
TTAGGACTGGGGCTTCGGTTAGTGCTA,-1.23 z-score
TTAGGACTGGGGTAGCGGTTAGTGCTA,-1.02 z-score
GACGGACGGGGTCTCGGGACGTGCTAG,-1.02 z-score

# Block 5
# Target: CCND2, cyclin fold, Cln2 fusion (human)
# Technique: yeast growth competition, sequencing
# Medium: yeast
# Setting: weak parent motif
# Reference: not given
# Direction: higher = stronger binding
# Parent: WEE1 docking peptide (human); HKTFRKLRLFDTP
Change,normalised enrichment score
H1C,0.312
L9G,0.426
F10A,-0.0105
D11E,0.0385
T3C,-0.361
F10D,-0.566
T12C,-0.114
L7M,-0.113
L9S,0.664
P13K,0.104
R8C,0.0759
P13R,-0.412
H1P,0.512
R8A,0.152
R5K,-0.198
T3D,0.212
K2W,0.183
L9V,-0.285
F4V,-0.0109
L9W,-0.404
R5G,-0.217
K2C,-0.279
D11C,0.276

# Block 6
# Target: RING finger protein unkempt homolog, zinc fingers 1-6, GST-SBP tag (UNK, Homo sapiens, UniProt Q9C0B0, residues 30-357)
# Chain of UniProt Q9C0B0 (30-357, looked up): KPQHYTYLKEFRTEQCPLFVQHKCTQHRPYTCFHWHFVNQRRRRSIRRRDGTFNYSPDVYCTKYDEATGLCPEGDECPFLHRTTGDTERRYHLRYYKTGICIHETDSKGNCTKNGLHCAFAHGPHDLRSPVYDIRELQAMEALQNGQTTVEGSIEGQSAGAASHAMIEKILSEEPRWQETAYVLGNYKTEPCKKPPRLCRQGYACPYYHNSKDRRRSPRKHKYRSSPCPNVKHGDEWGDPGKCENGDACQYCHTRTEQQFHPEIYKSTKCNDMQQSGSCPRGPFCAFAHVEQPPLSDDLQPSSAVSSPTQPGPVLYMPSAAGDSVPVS
# Technique: RNA Bind-n-Seq
# Molecule type: RNA
# Medium: in vitro
# Concentration: not given
# Setting: RNA with constant flanks, human and mouse sites, ends assumed
# Reference: input RNA pool
# Direction: higher = stronger binding
# Constant ends, left off below: GGGAGUUCUACAGUCCGACGAUC … CAACAGAGGAUUGAGCAUCA
Strand,bound/input enrichment
AAUAUGGAAAUUUAGUACAGGCUAGAGGUGUUUCCAAUUAACGAGUAAAAUGGAUUAUUCAGUAAAAGCAGUUGGCCCUCUGGAAAAUAGUAAAGCCAUGUAUGUGCCUCACUCUUUAUG,0.675 ratio
CAGUUGAAGACAGAGAAGGAUGAAAAGGAACUUUAUAAGGUACAUUUGAAGAAUACAGAAAUAGAAAAUACCAAGCUUAUGUCAGAGGUCCAGACUUUAAAAAAUUUAGAUGGGAACAAA,2.77 ratio
AUUUUCUUACUGGCUAGAGUUCUUGGUGGAGAAGUUGCAUAUGGCCAAGUUCUUGGAGUUAUAGGAUAUUCAUUACUUCCUCUCAUUGUAAUAGCCCCUAUACUUUUGGUGGUUGGAUCU,0.528 ratio
UUUCAUAAUCGAAGCGAUUUUAGAGUAGUUAACUUGAGAUUUCACAGCCAGUAAAUGGCUGUAUUUCUCCAGAGCUCUCAGCUCCCAUGUUUAUUCAGCCAACGAACAAACCAGACUGCA,0.154 ratio
CAGAGUGAUUCAAACCUGCAACUGGAGUACAGUGGAUUGCUUCCAACAAAAAAUCAAUAUUCUCUAAAUCCCAACAGCCAAGAAAUAAGCUGUCUUUUAUAAAGCAUUGCUAGAGUGACA,0.235 ratio
CUACUGUCCGAAGGCCUUCUUUCCCCACUCAAUUCUUCCUGCCCUGUUAUUAAUUAAGAUAUCUUCAGCUUGUAGUCAGACACAAUCAGAAUCACAGAAAAAUCCUGCCUAAGGCAAAGA,0.228 ratio
AAGAAGUGCAAACAGGACAAUAGGAAGGAGGAGCAGGCAGCUUCCCCUGUUGCAGAAGAUGUAGGUGAUGUGGGUGUGAGCUCAGAUGAUGAGAAGAGAGCCCAGGCAGCAAGAGGAUCU,0.51 ratio
UGAUUGGAUUAUUUGAAUGAAAUUUGCACACAACGAUUGAGUUGAACCUGCUUACUAUUUUUAGGAUUGUUUUAUUGUACUAACAACUUUUAAAGACUAUGAAGUAAAUAUUUCACGUAG,1.17 ratio
CGUGGAAAUAUUGUCUAUAUUCACAUAAGAGAUAAGACAUGGGAUGUUCAUGAGUAUUUGAAUAGUCUUUUCGAAGAAUUAAAAUCUUGGAGAGAUGUAUACUGGCGAUUGUGGGGAACA,0.2 ratio
UUAGAUUCUGGAAAAUUUCGAGUUUUAGGAUGCAUCUUGUCUGAAUUGAAACAGAAGGGUGAUAGAGUUGUGUUAUUUAGCCAAUUUACCAUGAUGCUGGAUAUCUUAGAGGUUCUAUUA,5.54 ratio
AGGCCUACCCGCCGCAGUACUGAUCAUUCUAUUUCCCCCUCUAUUGAUCCCCACCUCCAAAUAUCUCAUCAACAACCGACUAAUCACCACCCAACAAUGACUAAUCAAACUAACCUCAAA,1.01 ratio

# Excerpt of the above (block 2):
Change,binding fitness [natural log]
T37P,-1.53
Q41I,-1.45
L45P,-1.54
A46R,-1.27
S47E,-1.29
Q55T,-1.36
